Experimental data collected from several papers.
Every numbered part comes from another study and shows a few of its results, in no order. Substitutions count along the parent as printed.

Study 1
Target: Cyclic AMP-dependent transcription factor ATF-1 (ATF1, Homo sapiens, UniProt P18846, residues 1-271, full length assumed)
Technique: protein-binding microarray
Form: double-stranded DNA, one strand shown
Sample: in vitro
Concentration: not given
Notes: k-mer, scored over probes, only values ≥0.25
Direction: higher = stronger binding
Target sequence (chain): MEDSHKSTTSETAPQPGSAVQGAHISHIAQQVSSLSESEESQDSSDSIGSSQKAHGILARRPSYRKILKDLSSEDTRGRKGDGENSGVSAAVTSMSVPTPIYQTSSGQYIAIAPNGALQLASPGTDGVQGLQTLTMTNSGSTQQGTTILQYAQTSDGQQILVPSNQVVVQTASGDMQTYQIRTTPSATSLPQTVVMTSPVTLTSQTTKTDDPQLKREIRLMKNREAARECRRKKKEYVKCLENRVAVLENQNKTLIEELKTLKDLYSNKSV
Sequence | E-score
GTGACAC | 0.305
CGTACGC | 0.257
AGGGGCG | 0.264
ATGCGTC | 0.359
CTGACGA | 0.284
ACGTCAC | 0.498
TACGCAA | 0.34
AATACGT | 0.374
CCCACCC | 0.271
GATGTCA | 0.295
GTGATGA | 0.269
ACACACG | 0.261
CACGTAG | 0.379
GTACGTA | 0.389
AACGTGA | 0.291
CACACGC | 0.25

Study 2
Target: Ras GTPase-activating protein-binding protein 1, C-terminal RGG region (G3BP1, Homo sapiens, UniProt Q13283)
Sequence of UniProt Q13283 (whole entry, looked up): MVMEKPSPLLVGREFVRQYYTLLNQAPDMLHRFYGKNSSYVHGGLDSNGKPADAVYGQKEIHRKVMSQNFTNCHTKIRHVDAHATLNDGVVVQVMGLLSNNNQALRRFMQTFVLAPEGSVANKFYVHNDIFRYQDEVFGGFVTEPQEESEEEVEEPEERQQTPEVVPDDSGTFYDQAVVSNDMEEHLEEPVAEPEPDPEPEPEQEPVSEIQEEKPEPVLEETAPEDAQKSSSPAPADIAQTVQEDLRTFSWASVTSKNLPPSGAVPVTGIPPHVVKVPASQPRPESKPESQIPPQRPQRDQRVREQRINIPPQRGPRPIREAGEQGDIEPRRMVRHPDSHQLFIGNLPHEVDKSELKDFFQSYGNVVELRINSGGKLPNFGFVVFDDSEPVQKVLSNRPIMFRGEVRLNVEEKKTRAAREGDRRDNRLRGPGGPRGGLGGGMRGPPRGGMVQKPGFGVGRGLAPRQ
Technique: RNA Bind-n-Seq
Form: RNA
Sample: in vitro
Concentration: 1 µM
Notes: whole 134-nt RNA, ends assumed
Added: 150 mM KCl
Relative to: input library
Direction: higher = stronger binding
Sequence | log2 enrichment
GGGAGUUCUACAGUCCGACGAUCCACAGACAACACGCACCCACACAGACACAGAGGGAAGGGGUUCGGAUGGGGACAGGGUGCACAGCAGGGCGGGGUAGGACCCCAGCCCCUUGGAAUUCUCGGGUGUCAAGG | 1.15
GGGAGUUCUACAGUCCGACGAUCCUGUGCUACACAUCGUAUGUACCGAAUCGGGAAAAAAAGGGGAAAAAAAGGAAAAAAAGGGGAAAGUAUUAUGUUACGCCGUUCGGAUCUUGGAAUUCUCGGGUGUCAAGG | -1.18
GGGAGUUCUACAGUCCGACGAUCGUCCUGUGCUACACAUCGUAUGUACCGAAUCGGUUUUUGGUUUUUUUGGUUUUUUUGGAAAGUAUUAUGUUACGCCGUUCGGAUCUGCACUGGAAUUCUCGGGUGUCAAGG | -1.48
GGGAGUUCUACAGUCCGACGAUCCUCAAGUCCUGUGCUACACAUCGUAUGUACCGAAUCGGUUUUUUUGGUGGAGGAAAGUAUUAUGUUACGCCGUUCGGAUCUGCACUUCCAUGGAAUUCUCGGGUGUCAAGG | -1.23
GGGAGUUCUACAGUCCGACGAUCAAGUCCUGUGCUACACAUCGUAUGUACCGAAUCGGGAAAGGGAAAAAAAGGGUGGGAAAGUAUUAUGUUACGCCGUUCGGAUCUGCACUUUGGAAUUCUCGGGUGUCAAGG | 0.904
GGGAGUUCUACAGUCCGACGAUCAGUCCUGUGCUACACAUCGUAUGUACCGAAUCGGAAAAAAAGGAAAAAAAGGAAAGGAAAGUAUUAUGUUACGCCGUUCGGAUCUGCACUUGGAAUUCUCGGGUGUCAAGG | -2.21
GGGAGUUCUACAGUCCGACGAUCUCAAGUCCUGUGCUACACAUCGUAUGUACCGAAUCGGGGAAGGGAAGGGAAGGGGAAAGUAUUAUGUUACGCCGUUCGGAUCUGCACUUCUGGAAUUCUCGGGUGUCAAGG | 2.32
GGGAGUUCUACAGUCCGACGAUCUGGCCCUGGUGGCAUGCGGGGAGGAAGAGGUGGCCUCAUGGAUCGUGGUGAUCCCGGUGGAAUGUUCAGAGGUGGCCGUGGUGGAGACAGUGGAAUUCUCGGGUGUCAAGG | 1.48
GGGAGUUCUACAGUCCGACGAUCCACAGACAACACGCACCCACACAGACACAGAGGGAAGGGGUUGGGAUGGGGACAGGGUGCUCAGCAGGGCGGGGUAGGACCCCAGCCCCUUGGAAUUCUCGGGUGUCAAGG | -0.869
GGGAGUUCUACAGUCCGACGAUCUCCUGUGCUACACAUCGUAUGUACCGAAUCGGGGUUUUUUGGGUUUUUUGGUUUUUUGGGAAAGUAUUAUGUUACGCCGUUCGGAUCUGCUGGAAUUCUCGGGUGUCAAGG | -0.755

Study 3
Target: CCNE2, cyclin fold, Cln2 fusion (human)
Technique: yeast growth competition, sequencing
Sample: yeast
Notes: strong parent motif
Relative to: not given
Direction: higher = stronger binding
Starting sequence: E2F1 docking peptide (human); PPVKRRLDFETDH
Substitution | normalised enrichment score
T11Y | 5.74
K4D | 0.227
P2Q | 5.22
F9I | 0.319
P2V | 4.4
L7A | 0.143
V3R | 0.415
F9Q | 0.567
K4W | 1.28
R6C | 3.08
L7W | 0.418

Study 4
Target: RNA binding protein fox-1 homolog 2, RRM domain, GST-SBP tag (RBFOX2, Homo sapiens, UniProt O43251-10, residues 100-194)
Technique: RNA Bind-n-Seq
Form: RNA
Sample: in vitro
Concentration: 365 nM
Notes: natural RNA segment, single round, ends assumed
Relative to: no-protein control
Direction: higher = stronger binding
Residues (chain): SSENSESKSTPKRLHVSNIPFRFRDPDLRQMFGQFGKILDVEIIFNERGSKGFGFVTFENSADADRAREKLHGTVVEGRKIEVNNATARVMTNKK
Sequence | RBNS enrichment (R)
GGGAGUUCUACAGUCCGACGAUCGGGACCUCUGUUUCUUCGGCUGUUGGAACCUUGAAAUGACCAGAAAGUAGGACAUGUGCAGUCCCACCUGCAUCCAGUGUGGCUCUCUCCAUGGAGACUUGCUCUUCUUCUGGAAUUCUCGGGUGCCAA | 0.511
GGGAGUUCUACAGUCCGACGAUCAAUGAAAACAUCCCUGCUUCCCAGUCCCCGUGCCCGGCUACUAUCCACACUUGACAUGCGGAGCAAUCCUGCAUGUUGGUCCCCAUCUCCCCCACUAGAAACCCACUUCCUGGAAUUCUCGGGUGCCAA | 1.37
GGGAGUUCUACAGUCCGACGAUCGGUGAUAACCAGGGCCAUAGAAGACCUUUUCUCUCUUACCUUUCUCUGAUAGGAUCGUGUCCUUCAGUCAAGAGCUCAUGUGAACUCCAGACUUUAUAUUACAUCUCUGAUGGAAUUCUCGGGUGCCAA | 0.368
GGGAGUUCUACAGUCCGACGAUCACUCCAAACAGUACCUUUGCUUUGUUUGUACAAAAAUGAAGACCUAUAGCCAACACAAAGCAAAUGCCAGAGGUAUUGGAUGAUGCCAUAUUUGAACUGCCAUCUAUUAGUGGAAUUCUCGGGUGCCAA | 0.696
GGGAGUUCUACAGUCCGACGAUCCUGGGUGACAGAGCGAGACCCUGUCUUAAAAAAAAAAACAAAACAAAACCAGCAUCUGUUACUGGAACAGAGACCUCAGCCCAAGCUCAGGACAAGGAGGCCUCCCUGGGUGGAAUUCUCGGGUGCCAA | 0.625
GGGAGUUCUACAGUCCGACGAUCAAAUUCAGCAGACACCUCUUCAGCUUGAGUUCUUCACCAUCUUUUGCAACUGAAAUAUGAUGGAUAUGCUUAAGUACAACUGAUGGCAUGAAAAAAAUCAAAUUUUUGAUUGGAAUUCUCGGGUGCCAA | 0.962
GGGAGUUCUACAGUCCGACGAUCUUAGCUACCAGCAAUUUCUGUAAACCAAGAGAAGAUUGUCACAAAGAUUCACUACUUUCCAACUGAAUCUAUGCAGUAGAAAAAUCAUUAGAAAAUACAAAAAUUAGCCGUGGAAUUCUCGGGUGCCAA | 0.407
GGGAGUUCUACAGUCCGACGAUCUGUUCUCCCUAACUCUUUGUUCCAGUGCUGGGAAUUGAAUAGUGAGGUUCAGGAUUGCUAAGCGAGUGCUCUACCACUGAUGUGCAUCCUUAGUCCUUGUUUGCUUUCUAUGGAAUUCUCGGGUGCCAA | 0.502
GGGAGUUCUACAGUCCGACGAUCUGAUUAAAACAUUUGCUCAUAGCCAGCCUGCCUUUCUACGAGAUAGGCAGGACCUCUGAGCGAUGUAGGUUUUUUUAUUUUUAAGUUGUAUUUCUUUUCUCCCUGCUCUUUGGAAUUCUCGGGUGCCAA | 0.319
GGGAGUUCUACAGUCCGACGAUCCACUCUUCCUCACGCUGUUGUUACUCAUGCACCAUUCAGACUUGUUAGAGUAGAUGUGGGUUUAGGACUGCCAGGUUUGCCCAGUAUAGUAGUUUUUAUCACUAAAAAGUUGGAAUUCUCGGGUGCCAA | 1.07
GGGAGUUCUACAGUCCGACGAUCUGACCCUUUAAUACAUACAGUUCCUCAUGGUGUGGUGACCCCCCCCAACCAUAAAAUUAUCUUAUUGCUACUUCAUAACUGUAAUUUUGCUACUGUUAUAAAUCAUAAUGUGGAAUUCUCGGGUGCCAA | 1.13
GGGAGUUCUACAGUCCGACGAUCUGUAAGGAGAGGUUUUAAUUAAAACAAAAAAAAAUUCUUUUUUUUUUUUUUUUCCAAUUUUACCUUCUUUAAAAUAGGUUGUUGGAGCUUUCCUCAAAGGGUAUGGUCAUUGGAAUUCUCGGGUGCCAA | 0.67

Study 5
Target: Sal-like protein 4, full length isoform B (SALL4, Homo sapiens, UniProt Q9UJQ4-2, residues 1-616)
Technique: universal PBM
Form: double-stranded DNA, one strand shown
Sample: in vitro
Concentration: not given
Notes: 8-mer, flanks averaged, mean of replicates
Direction: higher = stronger binding
Construct (chain): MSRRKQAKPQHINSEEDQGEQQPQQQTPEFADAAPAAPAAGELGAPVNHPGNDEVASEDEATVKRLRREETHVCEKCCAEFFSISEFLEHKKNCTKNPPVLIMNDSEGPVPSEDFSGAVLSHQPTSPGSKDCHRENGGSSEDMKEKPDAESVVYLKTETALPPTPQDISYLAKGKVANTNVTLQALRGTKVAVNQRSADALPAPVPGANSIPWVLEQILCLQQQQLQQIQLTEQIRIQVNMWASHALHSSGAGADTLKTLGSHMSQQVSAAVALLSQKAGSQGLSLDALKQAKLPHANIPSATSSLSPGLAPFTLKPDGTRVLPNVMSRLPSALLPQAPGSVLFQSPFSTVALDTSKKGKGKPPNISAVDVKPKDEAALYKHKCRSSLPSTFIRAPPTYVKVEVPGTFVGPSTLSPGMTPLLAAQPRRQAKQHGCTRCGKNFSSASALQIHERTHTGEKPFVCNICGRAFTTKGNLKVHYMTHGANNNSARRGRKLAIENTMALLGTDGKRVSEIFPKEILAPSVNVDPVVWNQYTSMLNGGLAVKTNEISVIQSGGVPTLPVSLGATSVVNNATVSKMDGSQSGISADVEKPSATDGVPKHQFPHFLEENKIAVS
Sequence | E-score
CTTTCTAA | 0.0415
CCGAGGTA | -0.247
CGAACACA | 0.0116
TCGTGTCA | -0.0623
AATTTAAA | 0.319
CCATCTGA | -0.0912
CGGGTACC | -0.216
GGACGTGA | -0.115
TACCGCGA | -0.0252
CGGGTTAA | -0.0799
CAATGCAG | -0.0859
ACCGTCAA | -0.0309
TGACCGAA | -0.142
CGTGGATA | 0.125
ATAGAAAA | 0.156
CGACCCCG | -0.376
CAACCCAG | -0.205
ATCTGGCC | -0.191
AATGAGGA | -0.0227
CGGCTGAC | -0.248
CTCGCGCC | -0.294
CCCGGTTC | -0.276
GCATTGAC | 0.0485
CCCCGCAG | -0.306
CCGCCTAG | -0.166

Study 6
Target: Interferon regulatory factor 5, full length, phosphomimetic (IRF5, Homo sapiens, UniProt Q13568-2, residues 1-514, K96S/S451D/S453D/S456D/S462D)
Technique: protein-binding microarray
Form: double-stranded DNA, one strand shown
Sample: in vitro
Concentration: 250 nM
Notes: 60-bp whole probe
Added: salmon DNA 0.4 mg/ml
Relative to: random background probes
Direction: higher = stronger binding
Shared flanks, not repeated: GCCTAGCAC … GTCTTGATTCGCTTGACGCTGCTG
Sequence | log fluorescence
TTAGGTTTCGGACTGGATTAGTGCTAG | 5.75 z-score
TCATTTTTTTTTTTGGAACTGTGCTAG | 0.962 z-score
CCAATTCTCTTTTCACTTTCGTGCTAG | 4.54 z-score
TTAGGTCTCAGACTGGATTAGTGCTAG | -0.355 z-score
TTAGGTATCGACTATCGGTCAGTGCTA | 7.59 z-score
GACGCTTTCGGGACTGGAGACGTGCTA | 6.29 z-score
GACGGACTGGGTCTCGGTACGTGCTAG | -0.381 z-score
GACGGTTTCGACACTGGGGCCGTGCTA | 4.49 z-score
TTAGATTTCGGGTACCGATTAGTGCTA | 5.08 z-score
GACGATTTCAGACAGGAGACGTGCTAG | 0.132 z-score
TCATGTTTGGCCCTGAAACTGTGCTAG | -0.054 z-score
TCATACTTCACTCTCTGACTGTGCTAG | 0.545 z-score
TTAGATTTCAGACTGGTTTAGTGCTAG | 0.479 z-score
TCACTTTCCCCTTCCTAACTGTGCTAG | 2.83 z-score
TTAGGTTACGGACTGGGTTAGTGCTAG | -0.443 z-score

Excerpt of the above (study 1):
Sequence | E-score
CGTACGC | 0.257
AGGGGCG | 0.264
ATGCGTC | 0.359
CTGACGA | 0.284
ACGTCAC | 0.498
TACGCAA | 0.34
AATACGT | 0.374
CCCACCC | 0.271
GATGTCA | 0.295
GTGATGA | 0.269
ACACACG | 0.261
CACGTAG | 0.379
GTACGTA | 0.389
AACGTGA | 0.291
